Measured values pooled from the literature.
Every numbered part comes from another study and shows a few of its results, in no order. “And” joins repeats or separate records; there may be more than shown.
Chain of UniProt Q16512 (whole entry, looked up): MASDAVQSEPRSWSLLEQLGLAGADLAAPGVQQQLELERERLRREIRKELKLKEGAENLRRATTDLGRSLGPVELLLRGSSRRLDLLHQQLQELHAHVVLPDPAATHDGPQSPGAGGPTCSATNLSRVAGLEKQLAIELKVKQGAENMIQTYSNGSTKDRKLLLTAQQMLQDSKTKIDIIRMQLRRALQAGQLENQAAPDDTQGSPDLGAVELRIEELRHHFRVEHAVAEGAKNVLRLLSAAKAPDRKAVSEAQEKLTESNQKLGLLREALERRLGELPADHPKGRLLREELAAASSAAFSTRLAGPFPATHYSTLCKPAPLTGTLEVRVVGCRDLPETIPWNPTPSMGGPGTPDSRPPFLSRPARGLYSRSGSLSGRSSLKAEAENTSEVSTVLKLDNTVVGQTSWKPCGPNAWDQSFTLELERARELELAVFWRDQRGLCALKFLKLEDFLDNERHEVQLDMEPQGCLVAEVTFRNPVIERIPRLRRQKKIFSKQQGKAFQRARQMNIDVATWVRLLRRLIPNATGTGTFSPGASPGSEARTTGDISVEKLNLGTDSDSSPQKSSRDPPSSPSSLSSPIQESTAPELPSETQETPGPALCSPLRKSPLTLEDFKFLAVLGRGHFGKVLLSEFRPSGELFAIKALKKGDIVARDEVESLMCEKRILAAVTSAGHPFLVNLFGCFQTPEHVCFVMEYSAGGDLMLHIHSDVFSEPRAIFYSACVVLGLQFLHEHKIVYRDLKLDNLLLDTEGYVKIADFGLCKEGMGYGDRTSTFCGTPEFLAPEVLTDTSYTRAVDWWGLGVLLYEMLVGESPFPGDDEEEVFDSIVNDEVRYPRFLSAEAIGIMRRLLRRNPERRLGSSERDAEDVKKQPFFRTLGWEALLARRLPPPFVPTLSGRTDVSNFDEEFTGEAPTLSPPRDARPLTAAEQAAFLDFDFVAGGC
Chain of UniProt P10721 (whole entry, unmodified, looked up): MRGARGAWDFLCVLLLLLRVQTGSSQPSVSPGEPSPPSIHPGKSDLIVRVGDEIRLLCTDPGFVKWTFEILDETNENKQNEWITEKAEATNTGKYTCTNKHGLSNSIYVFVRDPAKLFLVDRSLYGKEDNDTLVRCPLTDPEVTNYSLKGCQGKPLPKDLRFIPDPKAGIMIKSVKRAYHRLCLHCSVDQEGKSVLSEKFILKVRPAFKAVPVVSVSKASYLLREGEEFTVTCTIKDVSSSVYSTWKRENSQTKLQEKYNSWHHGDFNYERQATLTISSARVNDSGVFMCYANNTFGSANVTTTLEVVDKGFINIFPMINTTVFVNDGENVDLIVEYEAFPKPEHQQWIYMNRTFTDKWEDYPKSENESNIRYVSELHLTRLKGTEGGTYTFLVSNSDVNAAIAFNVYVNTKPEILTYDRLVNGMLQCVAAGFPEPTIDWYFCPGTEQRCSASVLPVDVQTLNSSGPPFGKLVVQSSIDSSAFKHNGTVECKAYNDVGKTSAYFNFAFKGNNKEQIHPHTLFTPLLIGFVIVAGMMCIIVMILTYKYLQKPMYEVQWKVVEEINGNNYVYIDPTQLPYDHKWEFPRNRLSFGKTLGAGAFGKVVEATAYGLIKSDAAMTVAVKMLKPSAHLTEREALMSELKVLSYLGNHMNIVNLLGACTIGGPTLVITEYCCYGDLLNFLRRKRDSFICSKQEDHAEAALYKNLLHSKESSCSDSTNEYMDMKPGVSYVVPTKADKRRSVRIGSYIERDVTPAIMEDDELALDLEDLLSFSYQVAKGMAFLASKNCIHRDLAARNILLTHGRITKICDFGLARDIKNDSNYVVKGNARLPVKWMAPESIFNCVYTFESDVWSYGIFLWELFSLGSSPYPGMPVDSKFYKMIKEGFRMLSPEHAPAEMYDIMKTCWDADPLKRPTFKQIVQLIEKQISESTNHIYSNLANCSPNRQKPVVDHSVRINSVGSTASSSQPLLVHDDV
Chain of UniProt P04049 (whole entry, looked up): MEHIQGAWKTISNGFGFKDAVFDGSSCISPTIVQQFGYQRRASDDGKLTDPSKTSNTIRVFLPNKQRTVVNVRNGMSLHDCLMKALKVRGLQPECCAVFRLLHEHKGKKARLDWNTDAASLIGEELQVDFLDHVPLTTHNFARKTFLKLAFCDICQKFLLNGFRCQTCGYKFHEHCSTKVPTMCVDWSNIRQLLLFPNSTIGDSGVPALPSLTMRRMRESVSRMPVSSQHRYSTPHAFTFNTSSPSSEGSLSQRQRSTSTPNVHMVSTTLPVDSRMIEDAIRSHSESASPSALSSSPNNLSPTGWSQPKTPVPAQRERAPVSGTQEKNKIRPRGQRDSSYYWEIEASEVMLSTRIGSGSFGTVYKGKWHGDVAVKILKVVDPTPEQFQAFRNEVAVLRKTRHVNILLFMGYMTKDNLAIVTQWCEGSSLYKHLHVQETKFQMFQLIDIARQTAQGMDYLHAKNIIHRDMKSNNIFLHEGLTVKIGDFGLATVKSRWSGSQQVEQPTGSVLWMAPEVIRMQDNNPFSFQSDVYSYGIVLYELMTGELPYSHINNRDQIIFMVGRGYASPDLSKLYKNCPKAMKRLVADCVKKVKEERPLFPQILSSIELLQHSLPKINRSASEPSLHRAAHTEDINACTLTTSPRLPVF
Chain of UniProt Q9C098 (whole entry, looked up): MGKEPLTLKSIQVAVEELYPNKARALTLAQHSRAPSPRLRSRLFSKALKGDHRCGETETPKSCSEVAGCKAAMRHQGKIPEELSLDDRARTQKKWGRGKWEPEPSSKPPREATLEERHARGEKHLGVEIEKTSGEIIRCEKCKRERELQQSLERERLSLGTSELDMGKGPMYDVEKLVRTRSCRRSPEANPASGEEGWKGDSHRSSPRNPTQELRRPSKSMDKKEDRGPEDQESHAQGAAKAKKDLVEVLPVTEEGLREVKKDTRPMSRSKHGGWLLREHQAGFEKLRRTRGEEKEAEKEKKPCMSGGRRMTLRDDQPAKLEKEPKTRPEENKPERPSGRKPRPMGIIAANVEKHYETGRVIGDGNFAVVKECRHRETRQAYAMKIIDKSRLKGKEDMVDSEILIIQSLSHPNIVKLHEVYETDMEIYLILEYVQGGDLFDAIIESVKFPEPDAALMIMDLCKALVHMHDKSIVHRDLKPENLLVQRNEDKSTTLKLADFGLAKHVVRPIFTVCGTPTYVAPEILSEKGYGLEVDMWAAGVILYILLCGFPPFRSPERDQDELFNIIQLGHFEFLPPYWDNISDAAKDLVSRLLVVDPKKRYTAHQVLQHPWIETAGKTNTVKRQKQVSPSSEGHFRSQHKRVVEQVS
Chain of UniProt P36507 (whole entry, looked up): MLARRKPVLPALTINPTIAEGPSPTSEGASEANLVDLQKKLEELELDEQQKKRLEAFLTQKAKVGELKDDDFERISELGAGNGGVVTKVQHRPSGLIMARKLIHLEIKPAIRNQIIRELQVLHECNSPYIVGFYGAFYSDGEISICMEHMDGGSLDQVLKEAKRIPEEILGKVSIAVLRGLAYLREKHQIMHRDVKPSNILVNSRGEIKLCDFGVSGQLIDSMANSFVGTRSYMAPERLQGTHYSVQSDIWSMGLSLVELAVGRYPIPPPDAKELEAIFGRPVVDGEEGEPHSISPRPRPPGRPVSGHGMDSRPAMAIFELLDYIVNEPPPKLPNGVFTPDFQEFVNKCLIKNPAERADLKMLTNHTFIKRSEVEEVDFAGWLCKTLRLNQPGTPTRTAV
Chain of UniProt P0C264 (whole entry, looked up): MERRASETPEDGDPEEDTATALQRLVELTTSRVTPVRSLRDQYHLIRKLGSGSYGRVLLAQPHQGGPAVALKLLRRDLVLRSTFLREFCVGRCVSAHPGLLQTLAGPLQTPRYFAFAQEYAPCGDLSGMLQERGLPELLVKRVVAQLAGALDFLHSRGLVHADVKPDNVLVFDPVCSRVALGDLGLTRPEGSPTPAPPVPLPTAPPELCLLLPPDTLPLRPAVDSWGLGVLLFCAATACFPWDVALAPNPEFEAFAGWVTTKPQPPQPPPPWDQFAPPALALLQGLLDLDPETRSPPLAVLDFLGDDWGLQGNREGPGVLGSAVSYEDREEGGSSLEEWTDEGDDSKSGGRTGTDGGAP

Series 1 — SMILES: CCc1[nH]c(-c2ccc(OC)cc2)nc1-c1ccncc1; effect on: enzyme activity; mode: inhibitor; tested at: 0.5 µM; relative to: control; endpoint: remaining activity
Insulin receptor (INSR, Homo sapiens, UniProt P06213): 85%
TAOK3 (Homo sapiens, UniProt Q9H2K8): 107%
NLK (Homo sapiens, UniProt Q9UBE8): 103%
FGR (Homo sapiens, UniProt P09769): 97.2%
SRC (Homo sapiens, UniProt P12931): 95.3%
FYN (Homo sapiens, UniProt P06241): 95.1%
STK25 (Homo sapiens, UniProt O00506): 116%
FLT4 (Homo sapiens, UniProt P35916): 123%
PASK (Homo sapiens, UniProt Q96RG2): 96.3%
MARK3 (Homo sapiens, UniProt P27448): 101%
PRKX (Homo sapiens, UniProt P51817): 93.3%
LIM domain kinase 1 (LIMK1, Homo sapiens, UniProt P53667): 94.9%
CDC42BPA (Homo sapiens, UniProt Q5VT25): 96.3%
FER (Homo sapiens, UniProt P16591): 96.4%
ALK (Homo sapiens, UniProt Q9UM73): 106%
NEK11 (Homo sapiens, UniProt Q8NG66): 77.4%
Cyclin-dependent kinase 3, with cyclin E (CDK3, Homo sapiens, UniProt Q00526): 97.9%
PKN1 (Homo sapiens, UniProt Q16512): 97%
ITK (Homo sapiens, UniProt Q08881): 97.4%
MATK (Homo sapiens, UniProt P42679): 94.1%

Series 2 — Structure (SMILES): CSc1cccnc1N1CCN(Cc2nc3ccccc3[nH]2)CC1; method: competition with immobilised ligand; tested at: 1 µM; endpoint: remaining binding
AKT1 (Homo sapiens, UniProt P31749); cell-free assay: 100%
DCLK3 (Homo sapiens, UniProt Q9C098); cell-free assay: 100%
KIT (Homo sapiens, UniProt P10721); cell-free assay: 100%
PKN1 (Homo sapiens, UniProt Q16512); cell-free assay: 100%
KIT (Homo sapiens, UniProt P10721, T670I/V559D); cell-free assay: 100%
Tyrosine-protein kinase ABL1, non-phosphorylated (ABL1, Homo sapiens, UniProt P00519, H396P); cell-free assay: 75%
TAOK1 (Homo sapiens, UniProt Q7L7X3); cell-free assay: 100%
HIPK1 (Homo sapiens, UniProt Q86Z02); cell-free assay: 78%
FGFR2 (Homo sapiens, UniProt P21802); cell-free assay: 100%
MAP3K14 (Homo sapiens, UniProt Q99558); cell-free assay: 100%
TNK2 (Homo sapiens, UniProt Q07912); cell-free assay: 100%
SGK3 (Homo sapiens, UniProt Q96BR1); cell-free assay: 95%
MET (Homo sapiens, UniProt P08581); cell-free assay: 100%
RAF1 (Homo sapiens, UniProt P04049); cell-free assay: 91%
Ribosomal protein S6 kinase alpha-2, C-terminal kinase domain (RPS6KA2, Homo sapiens, UniProt Q15349); cell-free assay: 100%
LATS2 (Homo sapiens, UniProt Q9NRM7); cell-free assay: 94%
MAP2K2 (Homo sapiens, UniProt P36507); cell-free assay: 70%
EGFR (Homo sapiens, UniProt P00533, del752-759); cell-free assay: 100%
Tyrosine-protein kinase ABL1, phosphorylated (ABL1, Homo sapiens, UniProt P00519, Q252H); cell-free assay: 71%
MAP2K7 (Homo sapiens, UniProt O14733); cell-free assay: 92%
CILK1 (Homo sapiens, UniProt Q9UPZ9); binding: 68%
SNRK (Homo sapiens, UniProt Q9NRH2); cell-free assay: 100%
EPHB1 (Homo sapiens, UniProt P54762); cell-free assay: 99%
SBK3 (Homo sapiens, UniProt P0C264); cell-free assay: 100%
MAP4K5 (Homo sapiens, UniProt Q9Y4K4); cell-free assay: 100%

Series 3 — effect on: RNA clamping; method: fluorescence polarization; tested at: concentration not given; notes: mean of two replicates; together with: FAM-labelled poly r(AG)8 RNA; endpoint: fluorescence polarization change
Target: Eukaryotic initiation factor 4A-I (EIF4A1, Homo sapiens, UniProt P60842)
Chain of UniProt P60842 (whole entry, looked up): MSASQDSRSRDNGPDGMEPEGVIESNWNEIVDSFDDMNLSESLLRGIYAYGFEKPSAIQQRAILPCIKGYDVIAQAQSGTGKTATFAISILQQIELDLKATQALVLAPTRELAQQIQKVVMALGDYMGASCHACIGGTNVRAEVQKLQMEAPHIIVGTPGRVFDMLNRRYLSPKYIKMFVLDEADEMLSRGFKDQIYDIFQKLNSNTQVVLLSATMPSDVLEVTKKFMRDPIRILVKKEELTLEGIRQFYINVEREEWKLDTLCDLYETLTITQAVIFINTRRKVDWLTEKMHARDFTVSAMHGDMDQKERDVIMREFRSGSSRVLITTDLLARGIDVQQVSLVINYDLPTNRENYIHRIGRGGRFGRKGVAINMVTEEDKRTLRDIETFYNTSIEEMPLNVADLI
COc1ccc([C@]23Oc4cc(OC)cc(OC)c4[C@](O)([C@H](C(=O)NCCCC(OC)OC)[C@H]2c2ccccc2)[C@H]3O)cc1: 1.4 mP
COc1ccc([C@@]23Oc4cc(OC)c(Cl)c(OC)c4[C@]2(O)c2nc4n(c(=O)c2[C@H]3c2ccccc2)CCC4)cc1: 21.8 mP
COCCN[C@@]12C(=O)C[C@@H](c3ccccc3)[C@]1(c1ccc(OC)cc1)Oc1cc(OC)cc(OC)c12: -5.6 mP
COc1ccc([C@@]23Oc4cc(OC)cc(OC)c4[C@]2(O)c2nc(-c4ccccc4)nc(OC)c2[C@H]3c2ccccc2)cc1: -0.6 mP
COC(=O)[C@@H]1[C@@H](c2ccccc2)[C@]2(c3ccc(OC)cc3)Oc3cc(OC)cc(OC)c3[C@@]23OC(c2cccnc2)=N[C@@]13O: 5.3 mP
COc1ccc([C@@]23Oc4cc(OC)cc(OC)c4[C@]2(O)[C@@H]2OC(=O)[C@@H]2[C@H]3c2ccccc2)cc1: 49.6 mP
COc1ccc([C@@]23Oc4cc(OC)cc(OC)c4[C@]2(O)c2nc(-c4cccc(OC)c4)[nH]c(=O)c2[C@H]3c2ccccc2)cc1: 18.5 mP and 40.7 mP
COc1ccc([C@@]23Oc4cc(OC)cc(OC)c4[C@]2(O)c2nc(-c4ccccc4)n(CC(CC(=O)O)OC)c(=O)c2[C@H]3c2ccccc2)cc1 (stereo partly drawn): 8.8 mP
COc1ccc([C@]23Oc4cc(OC)cc(OC)c4[C@@]2(O)c2nc(-c4ccc(C)cc4)[nH]c(=O)c2[C@@H]3c2ccccc2)cc1: 34 mP
COC(=O)[C@@H]1[C@@H](O)[C@@]2(O)c3c(OC)cc(F)cc3O[C@@]2(c2ccc(Cl)cc2)[C@H]1c1ccccc1: 21.5 mP
COc1ccc([C@@]23Oc4cc(OC)cc(OC)c4[C@]2(O)c2nc(-c4ccccc4)[nH]c(=O)c2/C3=C\Cc2ccccc2)cc1: -3.8 mP
COc1ccc([C@@]23Oc4cc(OC)cc(OC)c4[C@]2(O)[C@H](O)[C@H](C(=O)c2nccn2C)[C@H]3c2ccccc2)cc1: 31.6 mP
COc1ccc([C@@]23Oc4cc(OC)cc(OC)c4[C@]2(O)c2nc(-c4ccccn4)[nH]c(=O)c2[C@H]3c2ccccc2)cc1: 8.4 mP
COC(=O)[C@H]1[C@@H](O)[C@@]2(O)c3c(OC)cc(OS(=O)(=O)c4ccc(C)cc4)cc3O[C@@]2(c2ccc(OC)cc2)[C@@H]1c1ccccc1: 16.1 mP

Series 4 — method: KINOMEscan; tested at: 10 µM; reading: lower = stronger binding; endpoint: binding (% of control)
SMILES: COc1cc(C(=O)N2CCC(N3CCN(C)CC3)CC2)ccc1Nc1ncc2c(n1)N(C)c1ccccc1C(=O)N2C
CDK4-cyclinD1: 100%
MRCKA: 100%
FLT3(ITD): 100%
VEGFR2: 84%
TRKC: 100%
ABL1(M351T)-phosphorylated: 94%
DLK: 81%
IKK-epsilon: 96%
ABL1(F317I)-phosphorylated: 17%
JNK1: 95%
p38-alpha: 87%
ABL1(T315I)-nonphosphorylated: 100%
MET: 100%

A few entries again (series 2):
CILK1 (Homo sapiens, UniProt Q9UPZ9); binding: 68%
SNRK (Homo sapiens, UniProt Q9NRH2); cell-free assay: 100%
EPHB1 (Homo sapiens, UniProt P54762); cell-free assay: 99%
SBK3 (Homo sapiens, UniProt P0C264); cell-free assay: 100%
MAP4K5 (Homo sapiens, UniProt Q9Y4K4); cell-free assay: 100%
